Experimental data collected from several papers.
Compare with care: the assays were run in different laboratories. Numbers after ± are the reported error.

O=P(O)(OCc1cccc2ccccc12)Oc1c2c(c(OP(=O)(O)OCc3cccc4ccccc34)c3c1C1CC3c3cc4c(cc31)C1CC4c3ccccc31)C1CC2c2cc3c(cc21)C1CC3c2ccccc21
EC50 (liposome dye leakage; liposomes 200 nm; 30 min, with: carboxyfluorescein 50 mM): 4.8 µM

CC(C)C[C@H](NC(=O)[C@H](C)NC(=O)CNC(=O)[C@H](CC(C)C)NC(=O)[C@@H](NC(=O)[C@H](CC(N)=O)NC(=O)[C@H](CCC(=O)O)NC(=O)[C@@H]1CCCN1C(=O)[C@@H]1CCCN1C(=O)[C@@H](NC(=O)[C@H](CCC(=O)O)NC(=O)[C@@H]1CCCN1C(=O)CNC(=O)[C@H](CC(C)C)NC(=O)[C@H](CC(=O)O)NC(=O)[C@H](CCC(N)=O)NC(=O)[C@H](CC(=O)O)NC(=O)[C@@H](NC(=O)[C@@H](N)CO)C(C)C)C(C)C)C(C)C)C(=O)N[C@@H](CC(C)C)C(=O)N[C@@H](CCCNC(=N)N)C(=O)N[C@H](C(=O)O)C(C)C
EC50 (evoked EPSC amplitude reduction, voltage clamp; rat PVN slices): ~0.008 µM

[N]#[Os]([Cl])([Cl])[Cl].c1cnc2c(c1)ccc1cccnc12
DNA degradation concentration (gel electrophoresis; pUC19 plasmid DNA): > 250 µM

Cc1ccc(/C=C/C(=O)O)cc1-c1cc2c(cc1C)C(C)(C)CCC2(C)C
log2 fold change (RNA sequencing, measured: Nmb; rat, brain; dose not given, 24 h; reference: vehicle): 0.33

CC(C)C[C@H](NC(=O)CNC(=O)[C@H](CO)NC(=O)[C@@H](NC(=O)[C@@H](N)CCC(=O)O)C(C)C)C(=O)N[C@@H](CCC(=O)O)C(=O)N[C@@H](CCC(N)=O)C(=O)N[C@@H](CC(C)C)C(=O)N[C@@H](CCC(=O)O)C(=O)O
NO production (Griess; RAW264.7, mouse; 1000 µg/mL, 24 h, with: heat-killed Cutibacterium acnes 100 µg/mL; reference: no peptide control): 50.9%

CC[C@H](C)[C@H](NC(=O)[C@H](CCCNC(=N)N)NC(=O)[C@H](CCCNC(=N)N)NC(=O)[C@H](CC(C)C)NC(=O)[C@H](Cc1ccccc1)NC(=O)CNC(=O)CNC(=O)[C@@H](N)Cc1ccc(O)cc1)C(=O)N[C@@H](CCCNC(=N)N)C(=O)N1CCC[C@H]1C(=O)N[C@@H](CCCCN)C(=O)N[C@@H](CC(C)C)C(=O)N[C@@H](CCCCN)C(=O)N[C@@H](Cc1c[nH]c2ccccc12)C(=O)N[C@@H](CC(=O)O)C(=O)N[C@@H](CC(N)=O)C(=O)N[C@@H](CCC(N)=O)C(=O)O
stimulation (C57BL/6 mouse striatal membranes; concentration not given; reference: basal): 3.1 ± 0.1 fold

CSCCNC(=O)CCC(C)C1CCC2C3C(O)CC4CC(O)CCC4(C)C3CCC12C (stereo not drawn)
mRNA level (measured: Cyp8b1; SPF mice, liver; oral gavage, 50 mg/kg daily; reference: corn oil): increased

CCN(Cc1ccccc1)C(=O)CCc1nc(CN2CCN(C(=O)Cc3ccc(OC)c(OC)c3)CC2)no1
action potential number (current clamp; L4-L6 DRG neurons, rat CCI model; 1 µM, with: 500 pA current injection): 0.49 ± 0.29

CC1=C(C(=O)Nc2ccc(F)cc2)C(c2ccccc2Cl)NC(=S)N1 (stereo not drawn)
mean arterial pressure (carotid artery cannulation; male Wistar rats, anaesthetised; 0.3 mL, 3 h): 22.9 ± 0.92 mm Hg

C#CCC(C)OP(=O)(O)Oc1c2c(c(OP(=O)(O)OC(C)CC#C)c3c1C1CC3c3cc4c(cc31)C1CC4c3ccccc31)C1CC2c2cc3c(cc21)C1CC3c2ccccc21 (stereo not drawn)
EC50 (liposome dye leakage; liposomes 200 nm; 30 min, with: carboxyfluorescein 50 mM): 60.9 µM

CC[C@H](C)[C@H](NC(=O)[C@H](CCCNC(=N)N)NC(=O)[C@H](CCC(N)=O)NC(=O)[C@H](CC(=O)O)NC(=O)[C@H](CC(C)C)NC(=O)[C@H](CC(C)C)NC(=O)[C@H](CC(N)=O)NC(=O)[C@H](Cc1ccccc1)NC(=O)[C@H](CC(=O)O)NC(=O)[C@@H](NC(=O)[C@@H](NC(=O)[C@H](CC(N)=O)NC(=O)CNC(=O)[C@H](CO)NC(C)=O)C(C)C)[C@@H](C)CC)C(=O)N[C@H](C(=O)N[C@@H](Cc1c[nH]c2ccccc12)C(=O)N[C@@H](CCC(N)=O)C(=O)N[C@@H](CC(N)=O)C(=O)N[C@@H](Cc1c[nH]c2ccccc12)C(=O)N[C@@H](Cc1ccc(O)cc1)C(=O)N[C@@H](C)C(N)=O)[C@@H](C)CC
antigen-experienced T cells (measured: HA-19 tetramer; tetramer+ CD4 T cells, PBMC, healthy adults, HLA-DRB1*0101; dose not given, CD62L−CD45RA+/− or CD62L+CD45RA−): 48.1%

O=C(O)CCCC(=O)O
ABTS radical scavenging (1000 µg/mL): 81.2 ± 1.31%

O=C(O)/C=C/c1ccc(O)cc1
ABTS radical scavenging (250 µg/mL): 66.6 ± 1.2%

CCN(CCCCOc1ccc(CCC(=O)N2CCC(Cc3ccccc3)CC2)cc1OC)Cc1ccccc1
triglyceride level (APP/PS1 transgenic mouse, plasma; dose not given; reference: untreated model): decreased

somatostatin
GFAP-positive glial activation (Sprague-Dawley rat, streptozotocin-induced diabetes, retina; eye drops, 10 mg/mL, score 3): 0%

CC(C)C[C@H](NC(=O)[C@H](Cc1ccccc1)NC(=O)CNC(=O)CNC(=O)[C@H](Cc1ccc(O)cc1)NC(=O)OC(C)c1ccccc1[N+](=O)[O-])C(=O)O (stereo partly drawn)
activation time constant (GIRK current, MOR agonist; rat, locus coeruleus neurons; 10 µM, with: 100 mW 355 nm light, 50 ms): 0.379 ± 0.03 s

Cc1ccc2c(n1)c(-c1cccc(S(C)(=O)=O)c1)c(C)n2C/C(F)=C/CN
mature collagen crosslinks (measured: pyridinoline; male C57BL/6J mice myocardial infarction, heart; oral, 14 mg/kg daily, 28 days; reference: vehicle): decreased

O=c1c(O)c(-c2cc(O)ccc2O)oc2cc(O)cc(O)c12
ABTS radical scavenging (500 µg/mL): 77.2 ± 2.1%

CC(=O)c1nn(-c2ccc(Cl)cc2)c2nc3nc(-c4ccccc4)cc(-c4ccc5ccccc5n4)c3c(=O)n12
IC50 (DPPH scavenging, absorbance; 30 min): 133 µM

CCc1nnc(-c2c(OC)cc(-c3cnc4cc(-c5cnn(C)c5)ccn34)cc2OC)o1
mRNA level (measured: Sost; male C57BL/6J mice; oral gavage, dose not given, 3 weeks): decreased

CCc1ccc(COP(=O)(O)Oc2c3c(c(OP(=O)(O)OCc4ccc(CC)cc4)c4c2C2CC4c4cc5c(cc42)C2CC5c4ccccc42)C2CC3c3cc4c(cc32)C2CC4c3ccccc32)cc1
EC50 (liposome dye leakage; liposomes 200 nm; 30 min, with: carboxyfluorescein 50 mM): 6.9 µM

COC[C@@H](NC(C)=O)C(=O)NCc1ccc(OCc2ccc(OC(F)(F)F)cc2)cc1
ED50 (6 Hz seizures; mouse; intraperitoneal): 23 mg/kg

CC[C@H](C)[C@H](NC(=O)[C@@H](NC(=O)[C@H](CC(=O)O)NC(C)=O)[C@@H](C)O)C(=O)N[C@@H](CCCNC(=N)N)C(=O)N[C@@H](CC(C)C)C(=O)N[C@@H](CC(C)C)C(=O)N[C@@H](Cc1ccccc1)C(=O)N[C@@H](CCC(N)=O)C(=O)N[C@@H](CC(C)C)C(=O)N[C@@H](CCSC)C(=O)N[C@@H](CCCNC(=N)N)C(=O)N1CCC[C@H]1C(=O)N1CCC[C@H]1C(=O)N[C@@H](CC(N)=O)C(=O)N[C@@H](CCSC)C(=O)N[C@H](C(=O)N1CCC[C@H]1C(=O)N[C@@H](C)C(=O)N[C@H](C(=O)N[C@@H](CC(N)=O)C(=O)N[C@@H](C)C(N)=O)C(C)C)[C@@H](C)O
antigen-experienced T cells (measured: HA-15 tetramer; tetramer+ CD4 T cells, PBMC, healthy adults, HLA-DRB1*0101; dose not given, CD62L−CD45RA+/− or CD62L+CD45RA−): 63.2%

CC(C)C[C@H](NC(=O)[C@@H](N)CCCNC(=N)N)C(=O)N[C@@H](CCCNC(=N)N)C(=O)N[C@@H](Cc1c[nH]c2ccccc12)C(=O)N1CCC[C@H]1C(=O)N[C@@H](CCCNC(=N)N)C(=O)N1CCC[C@H]1C(=O)N[C@@H](CCCNC(=N)N)C(=O)N[C@@H](Cc1c[nH]c2ccccc12)C(=O)N[C@@H](CCCNC(=N)N)C(=O)N[C@@H](CCCCN)C(=O)N1CCC[C@H]1C(=O)N1CCC[C@H]1C(=O)O
ABTS radical scavenging (ABTS; 1 mg/mL): 62%
